Published values gathered from unrelated publications.
Numbered parts are unrelated; each lists some results of a single study. “And” joins repeats or separate records; there may be more than shown.
Chain of UniProt P23975 (whole entry, looked up): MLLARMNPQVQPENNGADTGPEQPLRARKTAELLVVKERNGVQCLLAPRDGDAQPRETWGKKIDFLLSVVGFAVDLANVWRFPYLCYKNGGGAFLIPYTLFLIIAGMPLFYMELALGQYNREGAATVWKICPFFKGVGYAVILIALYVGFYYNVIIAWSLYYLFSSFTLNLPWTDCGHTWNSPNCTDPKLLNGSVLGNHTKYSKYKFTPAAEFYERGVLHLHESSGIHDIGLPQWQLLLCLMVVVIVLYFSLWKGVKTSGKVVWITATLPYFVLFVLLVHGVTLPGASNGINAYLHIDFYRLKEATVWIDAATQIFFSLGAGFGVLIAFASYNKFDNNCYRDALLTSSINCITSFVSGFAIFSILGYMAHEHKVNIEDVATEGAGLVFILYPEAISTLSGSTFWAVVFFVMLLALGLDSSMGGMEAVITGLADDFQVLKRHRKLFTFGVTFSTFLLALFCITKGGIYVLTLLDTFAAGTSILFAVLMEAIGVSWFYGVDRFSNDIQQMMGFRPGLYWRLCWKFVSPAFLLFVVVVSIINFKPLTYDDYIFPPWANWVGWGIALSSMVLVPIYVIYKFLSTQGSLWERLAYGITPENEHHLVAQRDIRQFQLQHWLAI
Chain of UniProt Q01959 (whole entry, looked up): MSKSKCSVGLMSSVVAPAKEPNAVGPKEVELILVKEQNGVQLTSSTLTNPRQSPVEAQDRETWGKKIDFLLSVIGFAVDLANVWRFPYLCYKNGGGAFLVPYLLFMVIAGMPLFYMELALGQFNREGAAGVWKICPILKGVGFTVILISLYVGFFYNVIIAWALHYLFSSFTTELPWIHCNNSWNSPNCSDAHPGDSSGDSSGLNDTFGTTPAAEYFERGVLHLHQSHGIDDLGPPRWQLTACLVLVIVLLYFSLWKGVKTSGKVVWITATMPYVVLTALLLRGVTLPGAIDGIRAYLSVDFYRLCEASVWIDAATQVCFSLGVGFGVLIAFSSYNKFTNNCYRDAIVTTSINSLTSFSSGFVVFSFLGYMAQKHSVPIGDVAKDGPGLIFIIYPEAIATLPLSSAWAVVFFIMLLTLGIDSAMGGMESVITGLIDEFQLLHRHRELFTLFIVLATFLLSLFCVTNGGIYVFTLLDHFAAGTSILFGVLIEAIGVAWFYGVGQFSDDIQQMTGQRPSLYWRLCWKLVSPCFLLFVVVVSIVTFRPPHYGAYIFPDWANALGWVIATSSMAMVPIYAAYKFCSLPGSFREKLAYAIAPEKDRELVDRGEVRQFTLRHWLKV
Chain of UniProt P31645 (whole entry, looked up): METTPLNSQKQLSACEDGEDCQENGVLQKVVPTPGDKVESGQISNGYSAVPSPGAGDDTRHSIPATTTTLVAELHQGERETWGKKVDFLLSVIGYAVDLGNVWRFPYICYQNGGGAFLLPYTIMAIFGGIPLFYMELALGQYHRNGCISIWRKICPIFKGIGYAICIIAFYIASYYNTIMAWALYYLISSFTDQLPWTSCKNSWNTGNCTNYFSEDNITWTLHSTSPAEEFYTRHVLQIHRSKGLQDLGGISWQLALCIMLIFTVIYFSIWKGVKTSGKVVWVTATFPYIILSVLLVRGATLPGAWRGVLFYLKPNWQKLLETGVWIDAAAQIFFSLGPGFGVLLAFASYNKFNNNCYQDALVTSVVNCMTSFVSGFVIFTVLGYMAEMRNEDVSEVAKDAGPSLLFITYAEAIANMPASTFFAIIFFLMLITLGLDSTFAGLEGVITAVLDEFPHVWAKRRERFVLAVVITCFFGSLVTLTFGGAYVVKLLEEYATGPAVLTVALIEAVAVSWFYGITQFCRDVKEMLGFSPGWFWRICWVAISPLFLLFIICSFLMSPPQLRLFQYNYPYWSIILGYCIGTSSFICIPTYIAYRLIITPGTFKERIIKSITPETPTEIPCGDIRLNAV

Series 1
Target: Eukaryotic initiation factor 4A-III (Homo sapiens, UniProt P38919)
Chain of UniProt P38919 (whole entry, looked up): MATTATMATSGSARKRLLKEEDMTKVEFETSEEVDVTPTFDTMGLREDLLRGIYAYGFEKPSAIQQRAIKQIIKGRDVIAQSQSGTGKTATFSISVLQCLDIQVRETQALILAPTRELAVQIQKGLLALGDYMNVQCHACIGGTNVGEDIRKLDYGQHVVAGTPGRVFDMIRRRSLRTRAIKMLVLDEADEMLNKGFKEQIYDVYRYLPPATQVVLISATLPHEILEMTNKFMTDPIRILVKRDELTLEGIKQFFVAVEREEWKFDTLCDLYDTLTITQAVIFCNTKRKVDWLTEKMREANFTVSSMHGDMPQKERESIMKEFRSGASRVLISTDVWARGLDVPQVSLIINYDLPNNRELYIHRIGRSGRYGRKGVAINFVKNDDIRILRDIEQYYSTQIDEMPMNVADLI
Effect on: RNA clamping
Method: fluorescence polarization
Concentration: concentration not given
Added: FAM-labelled poly r(AG)8 RNA
Quantity: fluorescence polarization change
COC(=O)[C@H]1[C@@H](O)[C@@]2(O)c3c(OC)cc(OC)cc3O[C@@]2(c2ccc(Br)cc2)[C@@H]1c1ccccc1: 29.4 mP
COC(=O)[C@H]1[C@H](c2ccccc2)[C@]2(c3ccc(OC)cc3)Oc3cc(OC)cc(OC)c3[C@@]23OC(c2ccccc2)=N[C@@]13O: -1 mP
COc1ccc([C@@]23Oc4cc(OC)cc(OC)c4[C@]2(O)c2nc4n(c(=O)c2[C@H]3c2ccccc2)CCC4)cc1: 36.2 mP and 47.5 mP

Series 2
Compound: C[C@@H](c1cccc(C#N)c1)n1cc(Cl)cc(C(N)=O)c1=N
Effect on: ligand displacement
Concentration: 10 µM
Quantity: inhibition
Sodium-dependent noradrenaline transporter (SLC6A2, Homo sapiens, UniProt P23975): -10.8%
Sodium-dependent dopamine transporter (SLC6A3, Homo sapiens, UniProt Q01959): -40.3%
Sodium-dependent serotonin transporter (SLC6A4, Homo sapiens, UniProt P31645): 14.8%

Series 3
Target: Bromodomain-containing protein 4, BD1 (BRD4, Homo sapiens, UniProt O60885)
Effect on: acetyl-histone H4 peptide binding
Method: AlphaScreen displacement
Concentration: 50 µM
Quantity: inhibition
CN1C(=O)NC(=O)C(=CNc2ccc(F)cc2)C1=O: 3.9%
CN1C(=O)C(=CNc2cccc(Cl)c2)C(=O)NC1=S: 11.6%
O=C1NC(=O)N(c2ccc(F)cc2)C(=O)C1=CNc1ccc(F)cc1: 9.25%
COc1cc(C2=C(c3c[nH]c4ccccc34)C(=O)NC2=O)cc(OC)c1OC: 86%

Series 4
SMILES: CNC(=O)c1ccc(-c2cnn3ccc(C(=O)N(C)c4ccc(Cl)c(C(=O)OC)c4)cc23)cc1
Organism: Cryptosporidium parvum
Species: neonatal calves
Dose: dose not given
Direction: direction not given
Quantity: fecal consistency score
day 9 post-treatment: 1 and 2 and 3
day 7 post-treatment: 1 and 2
day 14 post-treatment: 1 and 2
day 0 post-treatment: 3 and 2
